Measurements collected from several papers.
A part holds a random share of what one study measured. Changes are numbered by the printed parent chain.

Series 1
Target: Interferon regulatory factor 5, full length, phosphomimetic (IRF5, Homo sapiens, UniProt Q13568-2, residues 1-514, K96S/S451D/S453D/S456D/S462D)
Technique: protein-binding microarray
Form: double-stranded DNA, one strand shown
Medium: in vitro
Concentration: 250 nM
Setting: 60-bp whole probe
Added: salmon DNA 0.4 mg/ml
Relative to: random background probes
Reading: higher = stronger binding
Shared flanks, not repeated: GCCTAGCAC … GTCTTGATTCGCTTGACGCTGCTG
Strand | log fluorescence [z-score]
TTGGATCTCAGACTGGATTAGTGCTAG | -0.121
CTAGAACTGGGGACTGGATTAGTGCTA | -0.676
GTTTTTTAAAGTTTCAGTGAGTGCTAG | 1.96
ACTGATTTCCACTTTCTTAAGTGCTAG | 1.69
TTAGGTAACGGTTTCGGTTAGTGCTAG | 8.38
TCATGGATGTGTTTTAAACTGTGCTAG | -0.208
CGGGGGTGGGGAGAGCCCCTGTGCTAG | 1.21

Series 2
Target: Histone acetyltransferase KAT6A, winged helix 2, GST fusion (KAT6A, Homo sapiens, UniProt Q92794, residues 85-181)
Technique: protein binding microarray
Form: double-stranded DNA, one strand shown
Medium: in vitro
Concentration: not given
Setting: 8-mer, flanks averaged, mean of 2 arrays, mostly near background
Relative to: not given
Reading: higher = stronger binding
Construct (chain): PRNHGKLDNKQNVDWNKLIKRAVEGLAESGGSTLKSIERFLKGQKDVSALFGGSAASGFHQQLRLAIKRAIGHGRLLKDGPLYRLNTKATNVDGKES
Strand | E-score
CGAAGAAG | 0.0614
CCGGCGCA | 0.172
ATCAGGGC | 0.147
AAGTCAAG | -0.28
GGCTAAGA | -0.118
CTGTCTAA | 0.0895
TAACTCAA | 0.0434

Series 3
Target: CCNB1, cyclin fold, Cln2 fusion (human)
Technique: yeast growth competition, sequencing
Medium: yeast
Setting: weak parent motif
Relative to: not given
Reading: higher = stronger binding
Parent: SLBP docking peptide (human); ARYKRKLLINDFG
Change | normalised enrichment score
ARYKRKLLINDFI [G13I] | 0.725
ARYKRKLLICDFG [N10C] | 0.994
AKYKRKLLINDFG [R2K] | 0.936
ARYGRKLLINDFG [K4G] | 0.666
ARKKRKLLINDFG [Y3K] | 0.198
ARYKRKLRINDFG [L8R] | 0.747
ARYKRKLLINDDG [F12D] | 0.673
ARNKRKLLINDFG [Y3N] | 0.907

Other studies, line by line
Molecule | target | assay | test system | conditions | how to read | measurement | result
PhoQ, residues 284 288 289 292 302 303 GTAMQF | PhoP, residues 12 14 15 18 19 LHSVQ (Escherichia coli, UniProt P23836) | Sort-seq, measured: YFP reporter | E. coli | PhoQ-PhoP variant library, added: 10 µM Mg2+ | relative to: high Mg2+ state, higher = stronger signaling | fold induction | 1.06

A few entries again (series 1):
Strand | log fluorescence [z-score]
CTAGAACTGGGGACTGGATTAGTGCTA | -0.676
GTTTTTTAAAGTTTCAGTGAGTGCTAG | 1.96
ACTGATTTCCACTTTCTTAAGTGCTAG | 1.69
TTAGGTAACGGTTTCGGTTAGTGCTAG | 8.38
